# Results gathered from unrelated publications.
# A part holds a random share of what one study measured. Positions count from the first letter of the parent shown.

# Set 1 — technique: protein-binding microarray; form: double-stranded DNA, one strand shown; matrix: in vitro; tested at: 250 nM; setting: 60-bp whole probe; with: salmon DNA 0.4 mg/ml; reference: random background probes; reading: higher = stronger binding; shared flanks, not repeated: GCCTAGCAC … GTCTTGATTCGCTTGACGCTGCTG
# Target: Interferon regulatory factor 7, full length, phosphomimetic (IRF7, Homo sapiens, UniProt Q92985, residues 1-503, S101K/S471D/S472D/S475D/S476D/S477D/S483D/S484D/S487D)
# Residues (chain): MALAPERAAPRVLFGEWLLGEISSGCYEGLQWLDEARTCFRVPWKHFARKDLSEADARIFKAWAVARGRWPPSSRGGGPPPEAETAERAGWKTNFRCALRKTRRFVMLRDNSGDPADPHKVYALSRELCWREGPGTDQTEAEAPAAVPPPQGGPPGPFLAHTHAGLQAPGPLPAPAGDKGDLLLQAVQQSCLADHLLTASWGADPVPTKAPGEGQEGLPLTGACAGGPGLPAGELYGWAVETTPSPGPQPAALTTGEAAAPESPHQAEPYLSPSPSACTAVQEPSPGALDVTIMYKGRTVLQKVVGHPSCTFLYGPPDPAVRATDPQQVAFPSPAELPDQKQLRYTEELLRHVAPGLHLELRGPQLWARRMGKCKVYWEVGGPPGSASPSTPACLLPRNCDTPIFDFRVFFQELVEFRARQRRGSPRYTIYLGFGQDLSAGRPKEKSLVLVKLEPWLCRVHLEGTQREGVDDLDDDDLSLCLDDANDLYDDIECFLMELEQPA
Sequence,log fluorescence
TTAGAACTGAGTCTCGATCAGTGCTAG,-0.0372 z-score
AATTTTGTCATCTATAATGGAGTGCTA,0.465 z-score
GACGGTATCGGGACTGGGGTCGTGCTA,-0.302 z-score
TACGGTTTCGGGTTTCGGGACGTGCTA,11.8 z-score
AGAAATTTTTTTTCTAACTAGTGCTAG,-0.267 z-score
TACGAACTGGGGACTGGAGACGTGCTA,-0.563 z-score
GACGGATTCGACACTGGGGACGTGCTA,0.015 z-score
GTAGGTCTCGGACTGGGTTAGTGCTAG,-0.0899 z-score
GACGAACAGAGTATCGAGACGTGCTAG,0.00771 z-score
GACGATCTCAGGCTGGAGACGTGCTAG,-0.293 z-score
GACGGTATAGACTTTCGGGACGTGCTA,-0.487 z-score
GTCGGTATCGACTTTCGGGACGTGCTA,1.59 z-score
TTAGGTATCGGGACAGGGTTAGTGCTA,-0.119 z-score
GACGATATTGGGTATCGAGACGTGCTA,0.0152 z-score
GACGGACTTCTTATCCTGACGTGCTAG,-0.12 z-score
GACGATATCAGTCCCGAGACGTGCTAG,0.0671 z-score
GACGATTTCGACACTGGGGACGTGCTA,0.225 z-score
GGCCCTGTCCTTTTCTTTACGTGCTAG,-0.303 z-score
GACGATCTCAGGATCGAGACGTGCTAG,-0.166 z-score
TTACGTATCGGACTGGGTTAGTGCTAG,0.153 z-score
GACGACATCAGTATCGAGACGTGCTAG,-0.0315 z-score
TTAGAACTGAGTCTCAATTAGTGCTAG,0.125 z-score
GACGAACTGGGGCATCGAGACGTGCTA,-0.541 z-score
GACGGTCTCCTTTTGCTGACGTGCTAG,1.55 z-score
TCAACTGTGTGTTTGAGACTGTGCTAG,-0.543 z-score

# Set 2 — target: ATF2, bZIP domain (human); technique: DHFR protein complementation; matrix: yeast; reference: wild-type JUN-FOS pair; reading: higher = stronger binding
# Setting: single substitutions, most at no-binding floor
# Parent: JUN, bZIP domain (human); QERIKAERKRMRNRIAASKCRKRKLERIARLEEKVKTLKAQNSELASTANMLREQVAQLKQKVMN; partner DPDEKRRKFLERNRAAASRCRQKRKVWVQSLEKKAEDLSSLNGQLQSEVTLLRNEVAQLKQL
Variant,binding fitness
Q41G,-1.49 natural log
K34P,-1.51 natural log
L52G,-1.41 natural log
A40P,-1.43 natural log
E44S,-1.33 natural log
L52N,-1.58 natural log
A49C,-1.36 natural log
A40V,-1.43 natural log
S47P,-1.53 natural log
I28Q,-1.51 natural log
I28T,-1.43 natural log
V56W,-1.5 natural log
A46Y,-1.37 natural log
E54A,-1.28 natural log
T48L,-1.38 natural log
L38K,-1.51 natural log

# Set 3 — technique: RNA Bind-n-Seq; form: RNA; matrix: in vitro; tested at: 365 nM; reference: no-protein control; reading: higher = stronger binding
# Target: RNA binding protein fox-1 homolog 2, RRM domain, GST-SBP tag (RBFOX2, Homo sapiens, UniProt O43251-10, residues 100-194)
# Setting: natural RNA segment, single round, ends assumed
# Shared flanks, not repeated: GGGAGUUCUACAGUCCGACGAUC … UGGAAUUCUCGGGUGCCAA
# Residues (chain): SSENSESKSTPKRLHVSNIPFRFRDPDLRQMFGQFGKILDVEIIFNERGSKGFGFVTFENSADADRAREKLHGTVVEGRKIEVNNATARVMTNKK
Sequence,RBNS enrichment (R)
GAGACGGAGCACACUUGUUACGAAUCCUCCCUGCACUGCAUUCGCACAAACUGCUUCCUUUCUUGAUUCGUAGAUUUAAUAACUUACCUGAAGGGGUUUUCUUGAUAAUU,1.46
CAGCCUACAUGGUGAAUCCAGAGUGUGCCCGGUUCCACAUCACCUCUUCAUGGUCUGCUGUGCACAAACUAUAUCCGAGAGAUCCUGUCUCCCCAAAAGCCACUGCUGGG,0.209
CAGUCUGAGCCAAGUCCCUCCUGCUGGAGAAAAGCCUGGAACUGCCAAAACAAAAAAACAAAUACAAACAAACCUCGUCACCACGGUCAGGAGGAGGUUCAGACAUUCUG,0.574
GGCGCCUUGAGUUGGUGGUAGACUAGGGCAAAUGCCCUCUUUAGUGAGAGACCAGAGGUUUUGUAUAAGUUAUUGUCCUGCUCCCUUUUCAGUUGUCUUGAAGAGCUCUU,0.982
ACAAUCAUUUUAUGGAAGAUGUGUGAUAAUCUGUUUUUACUGGUAUUAAUAAACACAUACAAUGAAGAAAACAGAUAACAAAUUUUAAGACCAAGGUAAGAUACUCAAUC,0.316
AAGAUGCCCAGAGUGAUGGGUCAGCCCUUCUGCUCAAGCAGGCCGUGCCUGGCUGGUGCCAUUCAGACCGAGGCCGAAGGACUUGUGAACAAAAGCACAGAGAUGGCUCA,0.329
UCUCUCUCGAGCGUACCAUAAACCUGCAGAGAGAAGUCUCGAAAGGCUCCACCAGGUACCAAGGGCAGCUGCUUUUCCUGUCUUUUGUGCAUGGGCGACCCAUUACAGUA,0.481
CUCUUCAUCUUGCGGGCCUCCUAGGACCCAGCCUUCCAAAGUCCUGGCUGACAGAUGCUGCUCUUGGGCACCUGUCCCCACCCCACCUGCCCUGCUGUCCUCUGUAUCAC,0.42
CAUGUCUUGCUUCUCCAGUGUGUGGAAGGCACCGGGCAGUUUGCAGAGAUAAGCAAAACACAGUUCCUCUCGUGCAGAAGGUUAGAAUCUAUUUUUUUUUUUGACAGAGU,0.859
UAGAGAGCCAUAAAUAACUCUCUGGUGAAGUGAUUUGCUAUAAUGGGGGUGAGGAGUGGGGAGACUUCUCUGGUCAUUACACUGCUAUUUAUUUCUAGAACUCACUAUCA,0.357
CAGGCUCUUCAAGAAUACAAUAAUUAAGAAAAGGAGCCUCCUGAGAAGGCGUUGAGUAGACAGACUGUUGAGAGGCCACAGAGUGCACUUGGAAAAACUCAUUUCUGUGC,0.321
AGGGAAAUUGAAAAAGACAUGUAGAAUUUUGUUAGGUCUUCUGCUAAGCACGAAUAAGAUAUCUGCUUACAUUAAUUUUUAUAAAGUCAUUCAGUCAGAAUUUAGGAUUC,1.62

# Set 4 — target: CCND2, cyclin fold, Cln2 fusion (human); technique: yeast growth competition, sequencing; matrix: yeast; setting: weak parent motif; reference: not given; reading: higher = stronger binding
# Parent: CDC25A docking peptide (human); PPHRRRLLFACSP
Variant,normalised enrichment score
YPHRRRLLFACSP [P1Y],0.456
PPHRRRLLFNCSP [A10N],0.0451
PPHRRRLLFACCP [S12C],-0.109
PPHRRRLLFACSD [P13D],0.638
PPCRRRLLFACSP [H3C],0.343
PPHRRRLLFACSV [P13V],0.168
PPHRRRLLFAMSP [C11M],-0.308
PPHRRRLLFAKSP [C11K],-0.376
PPHGRRLLFACSP [R4G],0.162
PPHRRPLLFACSP [R6P],-0.0894
PPHRARLLFACSP [R5A],0.438
PPHRRRQLFACSP [L7Q],-0.0673
PPHRRRLLFQCSP [A10Q],0.408
PPHRRRLQFACSP [L8Q],-0.154
PPHRRRLLFACEP [S12E],0.214
PPHRRRLLFAGSP [C11G],-0.0264
PPHRRRLLWACSP [F9W],0.418
PKHRRRLLFACSP [P2K],0.196
PPHRRRLLFACAP [S12A],0.129
PAHRRRLLFACSP [P2A],0.155
PPHRRRLAFACSP [L8A],0.0866
PPFRRRLLFACSP [H3F],0.498
PPHRRKLLFACSP [R6K],0.292
PMHRRRLLFACSP [P2M],0.365
PPHRRRVLFACSP [L7V],0.262

# Set 5 — technique: DHFR PCA, deep sequencing; matrix: yeast; with: (+)-ABA 2500 µM; reference: wild-type fitted maximum; reading: higher = stronger binding
# Target: ABI1, truncated, D143A, DHFR fusion (Arabidopsis thaliana)
# Setting: methotrexate growth selection, single substitutions
# Parent: PYL1, truncated, DHFR fusion (Arabidopsis thaliana); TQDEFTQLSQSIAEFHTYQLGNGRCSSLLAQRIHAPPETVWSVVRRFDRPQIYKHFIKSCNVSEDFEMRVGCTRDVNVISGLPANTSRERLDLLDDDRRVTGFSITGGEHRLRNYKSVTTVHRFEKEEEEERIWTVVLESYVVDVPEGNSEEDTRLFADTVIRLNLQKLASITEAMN; partner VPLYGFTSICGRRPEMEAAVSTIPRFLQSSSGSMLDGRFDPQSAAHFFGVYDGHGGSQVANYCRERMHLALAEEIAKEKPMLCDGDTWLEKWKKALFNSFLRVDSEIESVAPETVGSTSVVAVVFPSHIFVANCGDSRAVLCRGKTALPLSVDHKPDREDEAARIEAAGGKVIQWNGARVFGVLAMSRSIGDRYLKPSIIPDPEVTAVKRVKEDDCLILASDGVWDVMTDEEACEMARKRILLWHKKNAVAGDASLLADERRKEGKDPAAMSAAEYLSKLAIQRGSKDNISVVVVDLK
Variant,relative binding score
L20V,101%
W41T,-3.36%
V40M,-15.2%
S117L,13%
F56T,69.2%
R163Q,88.8%
G148S,90.3%
R163L,77.8%
A84F,62.7%
P36H,93.4%
G23C,92.4%
D153W,12.4%
A84Y,62.5%
W134M,106%
L20T,99.3%
E109T,102%
T17H,111%
D153H,89.4%
I12N,79.1%
Y18W,102%
D159W,48.6%
V143E,3.33%
